Published values from different studies.
Each numbered part is a random draw from the data of one study; scales do not carry over between parts. Positions count from the first letter of the parent shown.

Study 1 — technique: protein-binding microarray; molecule type: double-stranded DNA, one strand shown; matrix: in vitro; tested at: not given; reading: higher = stronger binding
Target: Max dimerization protein 1, bHLH-zipper, MAX partner unstated (MXD1, Homo sapiens, UniProt Q05195, residues 56-136)
Notes: k-mer, scored over probes, only values ≥0.25
Residues (chain): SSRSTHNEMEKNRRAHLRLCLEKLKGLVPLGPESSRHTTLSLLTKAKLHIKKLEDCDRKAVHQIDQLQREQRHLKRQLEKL
Oligonucleotide	E-score
CGTGACGA	0.273
CCATGTGC	0.472
AGTCACAT	0.278
ACGGGGTA	0.31
CCACGCGC	0.422
ACGTGGTC	0.385
GCCTCCCC	0.384
ACCATGAG	0.365
CCACCCTC	0.262
AACGCGTG	0.382
AACATGCG	0.41
ATGTGGTG	0.254
CCATGCTC	0.368
GCCACGCC	0.339
AGCGTGCC	0.324
ACGCGCGA	0.259
AGCGTGCA	0.395

Study 2 — technique: universal PBM; molecule type: double-stranded DNA, one strand shown; matrix: in vitro; tested at: not given; reading: higher = stronger binding
Target: Sal-like protein 4, full length isoform B (SALL4, Homo sapiens, UniProt Q9UJQ4-2, residues 1-616)
Notes: 8-mer, flanks averaged, mean of replicates
Oligonucleotide	E-score
ATGTGTGA	0.142
CAAACCTC	-0.152
ACATCAGT	-0.0895
CCTCAGCA	-0.285
GAGACCGC	-0.349
AATTATCT	0.296
ATGCGCAT	0.302
CAAGAATG	0.00209
AAGGATAT	0.217
GCATTGGA	0.0764
CAGGTTGA	-0.14
AGGCAACA	-0.119
CCAAGCTC	-0.217
CGCATACG	0.0235
AATGTATC	0.308
AAGCAGCT	-0.166
TAATGAGA	0.269
CCGATTCG	-0.0299

Study 3 — technique: DHFR PCA, deep sequencing; matrix: yeast; added: (+)-ABA 17 µM; relative to: wild-type fitted maximum; reading: higher = stronger binding
Target: ABI1, truncated, D143A, DHFR fusion (Arabidopsis thaliana)
Notes: methotrexate growth selection, single substitutions
Starting sequence: PYL1, truncated, DHFR fusion (Arabidopsis thaliana); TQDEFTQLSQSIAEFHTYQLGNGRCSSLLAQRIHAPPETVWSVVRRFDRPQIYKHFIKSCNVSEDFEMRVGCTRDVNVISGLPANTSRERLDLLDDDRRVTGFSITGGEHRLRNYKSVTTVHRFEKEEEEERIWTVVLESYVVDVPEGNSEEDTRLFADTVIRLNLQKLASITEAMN
Variant	relative binding score [%]
D144I	9.95
S11P	87.4
L91T	-14.9
T154L	8.78
S80H	20.1
E14W	29.8
S140K	-12.3
I162E	-3.64
D48M	-1.42
V44C	56.3
R132F	82.5
V137P	0.855
W41F	4.22
A175R	91
E174C	58
I57C	20.8
A30Y	79.5
F124S	70.7
E139W	68.5
D65G	83.8
T17K	68

Study 4 — target: ATF3, bZIP domain (human); technique: DHFR protein complementation; matrix: yeast; relative to: wild-type JUN-FOS pair; reading: higher = stronger binding
Notes: single substitutions, most at no-binding floor
Starting sequence: JUN, bZIP domain (human); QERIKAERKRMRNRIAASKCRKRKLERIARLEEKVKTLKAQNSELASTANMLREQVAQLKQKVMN; partner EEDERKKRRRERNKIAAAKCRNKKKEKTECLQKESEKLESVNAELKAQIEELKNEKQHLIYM
Variant	binding fitness
L31R	-0.97 natural log
E32R	-0.151 natural log
A40I	-0.152 natural log
N42C	-0.636 natural log
A29F	-0.235 natural log
Q55H	-0.265 natural log
I28Y	-0.15 natural log
S43K	0.0519 natural log
A29C	-0.264 natural log
I28E	-0.166 natural log
K36A	-0.00997 natural log
K39S	-0.289 natural log
Q55G	-0.844 natural log
S47A	0.000476 natural log
T37R	-0.0322 natural log
I28H	-0.195 natural log
M51N	-0.201 natural log
V35S	-0.954 natural log
L38Q	-0.363 natural log
K34P	-1.36 natural log
A29W	-0.278 natural log
E54R	-0.215 natural log

Study 5 — target: CCND2, cyclin fold, Cln2 fusion (human); technique: yeast growth competition, sequencing; matrix: yeast; notes: weak parent motif; relative to: not given; reading: higher = stronger binding
Starting sequence: CDKN1A docking peptide (human); SKACRRLFGPVDS; partner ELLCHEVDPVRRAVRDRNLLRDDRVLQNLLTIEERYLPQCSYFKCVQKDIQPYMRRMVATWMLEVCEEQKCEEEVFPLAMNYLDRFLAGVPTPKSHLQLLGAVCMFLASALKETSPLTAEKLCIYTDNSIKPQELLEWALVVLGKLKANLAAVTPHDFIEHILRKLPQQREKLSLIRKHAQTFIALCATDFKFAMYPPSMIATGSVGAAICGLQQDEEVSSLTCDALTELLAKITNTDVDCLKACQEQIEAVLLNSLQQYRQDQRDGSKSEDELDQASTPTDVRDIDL
Variant	normalised enrichment score
F8K	-0.0186
G9H	0.214
L7N	0.0505
R6I	0.257
A3D	0.0414
A3S	0.148
A3H	0.0569
R5A L7A	-0.0404
F8V	0.128
V11L	0.302
K2M	0.5
C4A	0.333
L7V	0.254
G9F	1.02
A3R	-0.259
V11G	0.54
V11M	0.245
D12G	0.392

Study 6 — technique: RNA Bind-n-Seq; molecule type: RNA; matrix: in vitro; tested at: 100 nM; relative to: input RNA pool; reading: higher = stronger binding
Target: RING finger protein unkempt homolog, zinc fingers 1-6, SBP tag (UNK, Homo sapiens, UniProt Q9C0B0, residues 30-357)
Chain of UniProt Q9C0B0 (30-357, looked up): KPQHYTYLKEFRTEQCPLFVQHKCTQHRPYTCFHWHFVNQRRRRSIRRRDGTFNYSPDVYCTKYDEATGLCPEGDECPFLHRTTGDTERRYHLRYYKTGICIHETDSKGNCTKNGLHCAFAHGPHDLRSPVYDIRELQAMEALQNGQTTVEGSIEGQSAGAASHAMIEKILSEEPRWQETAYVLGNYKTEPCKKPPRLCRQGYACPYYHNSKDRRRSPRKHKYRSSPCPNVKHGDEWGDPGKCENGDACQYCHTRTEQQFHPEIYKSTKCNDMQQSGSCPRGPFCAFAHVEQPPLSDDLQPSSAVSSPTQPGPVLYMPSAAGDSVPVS
Notes: RNA with constant flanks, vertebrate orthologous sites, ends assumed
Shared flanks, not repeated: GGGAGUUCUACAGUCCGACGAUC … CAACAGAGGAUUGAGCAUCA
Oligonucleotide	bound/input enrichment [ratio]
AUUUUAAAUGUGUCAAAUGCUGGAUGUAACAUUAAACCAUCAUUUAGAAUAGAUGUUAAUUUGUUAUAAUUAAGCUACAAAUAGGUUACCUUAAACCAGAGAUGCACUGCCCUUGUCUGA	0.659
UUGGGGGGCAGCCGGUGGGGGAAUUCCCUGCCUUGGCCUUGCCUCCCCCCUUCCUGCUACCUGCCCCUAGUUUUUUUUUUUUAACCACCAUGUGAUUAAGGUCGGCGCUGCCUCCCCCGA	4.3
AAAUUUAUUUCAUGCCCUGGACUCCCUAUCGUACUGAUACUUUAAUAGAAUAUGCUUCUUUAGAAGAUUUUCAAAAUAGUCGCCAAACAACAACAUAUAAACUUCCAAAUCGAGUAGAUG	1.07
AAAUCAAUAGAAUUACAAAUACUAAAGUUGCUGUUGAAAGGGUAUCCAAGUAUGUGUUGGUAGUUACUAAAACAAUUAUAGCUGUUAUUGCCUUGUAUUUAUAGCCCUUGUUUCAGGUUU	1.79
UGGUUUUAAAAAAGGAGCUAUUAGGGCAAAAAAUGAUAAAUGUCACAUGUGCCAAGCUAACUGUUCGUCACUGAAAGCUCUAGAAGGUUCCAGGCUGGGGAUGUAGUUCAGUAGUGCAAU	0.568
CUACUAUAAACAACUCAGGGCAGUAUUCUCGAUAUCCUUACAGUAACCUAAAUCAGGGAUUAGUUAACAAUACAGGGAUGAAUCAAAAUUUAGGCCUUACAAAUAACACUCCAAUGAAUC	1.51
GGGACGUUUUGAUGUAAAAAUUGAAGUUAAGAGCUGAUCACAAGCACAAAUCUUUCCCACUAGCCAUUUAAACCAUUAAAAAGAUACAAAAACAAAACCUACUAGUCUUGAACAAACUGU	2.26
UCCUAGCACUUUGAUAAAAAGUGUGGACUGGUUGCUUGUAUUUUCUUUAUUCUUUUUAAUCAGCUUUAUUAUGUACGCUACUAUGCGAACUGAGAGCAUUCGAUGGCUAAUUCCAGGACA	0.378
CUAGUCUUCCACUUAGGGUUGGCCUCAAAUCUAUAGGAUUUAUGACAAAUGUAUCAUAUCUAUUAAUAGUUGAGUUUAAUAUUUUUAUUCACCUAUAAAUAAAGAUGGCAUCUUCUCCAU	0.281
UUGGGACCAGCUCUCUGAAUAGAAAUAGUAGUAAAAAAACCAAGCAAAAUGAUAUUUGUAUAGAAAAAACAGAAGCUAAAUCAUGUAAAGUAAAUGCUGCCAGUGUUCCAGGCCCUAAAG	1.78
UCCUGCUCCUGCCGGGGUGUGACCGAGGCUGAAGCAUCUACCAGGGCUGCAAGGGGUCCACGGUAUUUUUUUUUUUGCUGCCUUGGUCCCCAGAACCUUCAAGCAACAGUGGCUGUAGAU	0.681

Study 7 — technique: aptamer microarray, sandwich; molecule type: DNA with 2'F-ANA; matrix: in vitro; tested at: 200 nM; added: Cy3 exosite-II aptamer, 400 nM; reading: higher = stronger binding; oligonucleotide: GGTTGGTGTGGTTGG
Target: Prothrombin, mature alpha-thrombin (F2, Homo sapiens, UniProt P00734)
Notes: whole 15-mer aptamer, many near background
Modification	mean fluorescence intensity [a.u.]
2'F-ANA at 4 5 9 12 13 14	44.1
2'F-ANA at 1 7 8 9 12 14 15	85.9
2'F-ANA at 1 2 3 5 6 8 9 10 12	50.5
2'F-ANA at 2 6 8 9 13	328
2'F-ANA at 1 3 7 8 9 10 11 12 14 15	62.8
2'F-ANA at 2 3 5 7 8 10 11 12 13 14 15	49.9
2'F-ANA at 2 3 4 7 8 10 11 12	289
2'F-ANA at 1 4 6 9 10 12 14 15	70.3
2'F-ANA at 4 7 10 11 14	63.1
2'F-ANA at 1 2 6 9 12 15	292
2'F-ANA at 1 2 5 7 9 11 14	105
2'F-ANA at 4 5 6	83.7
2'F-ANA at 3 4 6 14 15	277
2'F-ANA at 2 3 5 7 9 10 13 15	54.3
2'F-ANA at 2 3 4 5 7 11 12 14 15	53.3
2'F-ANA at 1 2 3 5 8 9 10 12 14	59.1
2'F-ANA at 1 2 6 7 9 12 14	62.9
2'F-ANA at 3 8 9 10 11 14	416
2'F-ANA at 3 6 11 15	812
2'F-ANA at 1 4 6 9 10 13 15	48.1
2'F-ANA at 1 3 4 5 6 7 8 11 15	58.9
2'F-ANA at 1 2 4 5 7 8 9 10 15	80.1
2'F-ANA at 3 4 5 6 7 9 12 14 15	166
2'F-ANA at 1 5 9 10 11 12 14 15	46.9
2'F-ANA at 3 4 6 8 10 11 15	204

A few entries again (study 2):
Oligonucleotide	E-score
AATTATCT	0.296
ATGCGCAT	0.302
CAAGAATG	0.00209
AAGGATAT	0.217
GCATTGGA	0.0764
CAGGTTGA	-0.14
AGGCAACA	-0.119
CCAAGCTC	-0.217
CGCATACG	0.0235
AATGTATC	0.308
AAGCAGCT	-0.166
TAATGAGA	0.269
